Experimental data from different studies.
Cell line: SW480
Observed: cell growth or viability

`C[N+]1(C)CC[NH2+][Pt-2]1([OH])([OH])([Cl])[Cl]` gave an IC50 of 115 µM (MTT; 96 h).
`COc1cc2c(cc1O)[C@]1(O)C(=O)c3c(O)cc4c(c3O[C@@H]1CO2)C=CC(C)(C)O4` gave an IC50 of 60.8 µM (MTT).
For `C[O][Pt-2]1([Cl])([Cl])([O]C(=O)CCC(=O)OCCO)[NH2+]CC[N+]1(C)C`, the IC50 was 9.4 µM (MTT; 96 h).
With `CC(C)=CCc1c2c(c(O)c3c(=O)c(-c4ccc(O)cc4)coc13)CC(C(C)(C)O)O2` (stereo not drawn) the IC50 was 39.1 µM (MTT).
With `COc1c(OC(C)=O)cc2oc3cc(OC(C)=O)c(CC=C(C)C)c(O)c3c(=O)c2c1CC=C(C)C` the IC50 was 16.2 µM (48 h).
`COc1cc(/C=C/C(=O)NCCCCCCNC2=C3C[C@@H](C)C[C@H](OC)[C@H](O)[C@@H](C)/C=C(\C)[C@H](OC(N)=O)[C@@H](OC)/C=C\C=C(/C)C(=O)NC(=CC2=O)C3=O)ccc1O` gave an IC50 of 0.873 µM (MTT; 72 h).
With `C[O][Pt-2]([NH3+])([NH3+])([OH])([Cl])[Cl]` the IC50 was 3.9 µM (MTT; 96 h).
`CC(C)CCc1c(O)cc2oc3cc(O)c(O)c(CCC(C)C)c3c(=O)c2c1O` gave an IC50 of 11.6 µM (48 h).
The IC50 of `CC(C)=CCc1cc(-c2coc3cc(O)c(CC=C(C)C)c(O)c3c2=O)ccc1O` is reported as 116 µM (MTT).
`COc1c(O)cc2oc3cc(O)c(CC=C(C)C)c(O)c3c(=O)c2c1CC=C(C)C` has an IC50 of 14.5 µM (48 h).
The IC50 of `C[N+]1(C)CC[NH2+][Pt-2]1([OH])([Cl])([Cl])[O]C(=O)CCC(=O)OCCO` is reported as 77 µM (MTT; 96 h).
For `Cc1ccc(C(C)C)cc1.Oc1ccccc1C=NNC1=Nc2ccccc2-c2[nH]c3ccc(Br)cc3c2C1.[Cl-].[Cl][Ru+]`, the IC50 was 0.64 µM (MTT; 96 h).
The IC50 of `COc1c(O)cc2oc3cc4c(c(O)c3c(=O)c2c1CC=C(C)C)CC(O)O4` (stereo not drawn) is reported as 18.2 µM (48 h).
The IC50 of `Cc1ccc(C(C)C)cc1.Cc1ncc(CO)c(C=NNC2=Nc3ccccc3-c3[nH]c4ccc(Br)cc4c3C2)c1O.[Cl-].[Cl][Ru+]` is reported as 1.8 µM (MTT; 96 h).
With `C[O][Pt-2]1([Cl])([Cl])([O]C(=O)CCC(=O)O)[NH2+]CC[N+]1(C)C` the IC50 was 135 µM (MTT; 96 h).

Excerpt of the above:
`C[N+]1(C)CC[NH2+][Pt-2]1([OH])([OH])([Cl])[Cl]` gave an IC50 of 115 µM (MTT; 96 h).
`COc1cc2c(cc1O)[C@]1(O)C(=O)c3c(O)cc4c(c3O[C@@H]1CO2)C=CC(C)(C)O4` gave an IC50 of 60.8 µM (MTT).
